Published values gathered from unrelated publications.
Compare with care: the assays were run in different laboratories. Values after ≈ are worked out from the molar mass of the structure shown.
Organism: Aspergillus fumigatus

Compound = CC[C@H](C)[C@H](NC(=O)[C@H](CCCCN)NC(=O)[C@H](CCCNC(=N)N)NC(=O)[C@H](CC(C)C)NC(=O)[C@H](Cc1ccccc1)NC(=O)[C@H](CCCNC(=N)N)NC(=O)CNC(=O)[C@H](Cc1ccccc1)NC(=O)[C@@H](N)CCCNC(=N)N)C(=O)N[C@@H](CCCNC(=N)N)C(=O)N[C@@H](CCCNC(=N)N)C(=O)N[C@@H](Cc1ccccc1)C(=O)N[C@@H](CCCNC(=N)N)C(=O)N1CCC[C@H]1C(=O)N[C@@H](CCCCN)C(=O)N[C@H](C(=O)N[C@H](C(=O)N[C@H](C(=O)N[C@H](C(=O)N[C@H](C(=O)N[C@@H](CCC(N)=O)C(=O)NCC(=O)N[C@@H](CO)C(=O)N[C@@H](C)C(=O)N[C@@H](CCCNC(=N)N)C(=O)N[C@@H](Cc1ccccc1)C(N)=O)[C@@H](C)CC)[C@@H](C)O)[C@@H](C)CC)[C@@H](C)O)C(C)C; test = metabolic activity, resazurin; system = azole-resistant; conditions = 27 h, 37 °C; endpoint = MIC; value = 5 µM
Compound = CCCCCC1CC2CCCC3CC(C)N=C(N1)N32 (stereo not drawn); test = microbial growth; system = ATCC204305; endpoint = IC50; value = 34.2 µM
Compound = CCCCCCCCCCCCCCCCC1CC(=O)NCCCN(C)CCCCN(C)CCCN1C (stereo not drawn); test = microbial growth; system = ATCC90906; endpoint = IC50; value = 7.5 µg/mL
Compound = C[C@@H](c1ccn(Cc2ccc(Cl)cc2Cl)n1)[C@](O)(Cn1cnnn1)c1ccc(F)cc1F; test = growth, broth microdilution; system = 7544; conditions = 48 h, 35 °C, ≥50% inhibition; endpoint = MIC; value = 64 µg/mL
Compound = CCCCCCCCCC1CC2CCC3CC(CCCCCCCCC)NC(=N1)N23 (stereo not drawn); test = fungal growth; system = ATCC 204305; endpoint = MFC; value = 12 µM (≈ 5.01 µg/mL)
Compound = CCCCCn1ccc([C@H](C)[C@](O)(Cn2cnnn2)c2ccc(F)cc2F)n1; test = growth, broth microdilution; system = 7544; conditions = 48 h, 35 °C, ≥50% inhibition; endpoint = MIC; value = > 64 µg/mL
Compound = N=C(N)NCCC[C@@H]1NC(=O)[C@H](CCCNC(=N)N)NC(=O)[C@H](CCCNC(=N)N)NC(=O)[C@H](Cc2ccc3ccccc3c2)NC(=O)[C@H](Cc2c[nH]c3ccccc23)NC(=O)[C@H](Cc2ccc3ccccc3c2)NC(=O)[C@H](CCCNC(=N)N)NC1=O; test = XTT; system = Af-293; conditions = 2 × MIC; endpoint = biofilm mass reduction; value = 49 to 56%
Compound = CCCCCCCCCC1CC2CCCC3CC(CCCCCCCCC)NC(=N1)N23 (stereo not drawn); test = microbial growth; system = ATCC204305; endpoint = IC50; value = 10.1 µM
Compound = CCCCn1ccc([C@H](C)[C@](O)(Cn2cnnn2)c2ccc(F)cc2F)n1; test = growth, broth microdilution; system = 7544; conditions = 48 h, 35 °C, ≥50% inhibition; endpoint = MIC; value = > 64 µg/mL

Some of these lines once more:
Compound = CCCCn1ccc([C@H](C)[C@](O)(Cn2cnnn2)c2ccc(F)cc2F)n1; test = growth, broth microdilution; system = 7544; conditions = 48 h, 35 °C, ≥50% inhibition; endpoint = MIC; value = > 64 µg/mL
